Assay results of several laboratories.
Lines come from different studies, so protocols differ. ± marks the error that the study gave.
PPARG ligand-binding domain: Peroxisome proliferator-activated receptor gamma, ligand-binding domain (PPARG, Homo sapiens, UniProt P37231)
Chain of UniProt P37231 (whole entry, looked up): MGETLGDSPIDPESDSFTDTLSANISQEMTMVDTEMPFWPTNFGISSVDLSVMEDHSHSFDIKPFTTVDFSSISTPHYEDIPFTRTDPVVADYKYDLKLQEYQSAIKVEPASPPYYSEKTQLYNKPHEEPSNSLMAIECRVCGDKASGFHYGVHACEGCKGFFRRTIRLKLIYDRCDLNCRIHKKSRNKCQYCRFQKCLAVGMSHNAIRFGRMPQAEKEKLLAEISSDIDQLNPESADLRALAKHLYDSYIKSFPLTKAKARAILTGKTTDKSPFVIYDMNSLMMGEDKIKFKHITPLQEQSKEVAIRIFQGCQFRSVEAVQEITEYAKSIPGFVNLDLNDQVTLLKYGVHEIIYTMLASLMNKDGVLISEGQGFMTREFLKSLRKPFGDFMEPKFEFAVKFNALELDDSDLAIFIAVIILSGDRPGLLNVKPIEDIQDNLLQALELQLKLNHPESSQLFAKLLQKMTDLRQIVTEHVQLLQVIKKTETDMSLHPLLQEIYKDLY
Rhomboid protease AarA: Rhomboid protease AarA (Providencia stuartii, UniProt P46116)
Chain of UniProt P46116 (whole entry, looked up): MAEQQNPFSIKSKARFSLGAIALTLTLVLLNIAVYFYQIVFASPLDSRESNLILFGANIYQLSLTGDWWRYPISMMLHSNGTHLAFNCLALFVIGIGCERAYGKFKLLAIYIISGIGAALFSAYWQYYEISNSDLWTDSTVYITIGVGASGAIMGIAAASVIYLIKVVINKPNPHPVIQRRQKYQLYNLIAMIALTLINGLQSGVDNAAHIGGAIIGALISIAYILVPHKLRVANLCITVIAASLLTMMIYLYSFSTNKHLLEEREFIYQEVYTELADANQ
PPARG: Peroxisome proliferator-activated receptor gamma (PPARG, Homo sapiens, UniProt P37231)
Chain of UniProt P42679 (whole entry, looked up): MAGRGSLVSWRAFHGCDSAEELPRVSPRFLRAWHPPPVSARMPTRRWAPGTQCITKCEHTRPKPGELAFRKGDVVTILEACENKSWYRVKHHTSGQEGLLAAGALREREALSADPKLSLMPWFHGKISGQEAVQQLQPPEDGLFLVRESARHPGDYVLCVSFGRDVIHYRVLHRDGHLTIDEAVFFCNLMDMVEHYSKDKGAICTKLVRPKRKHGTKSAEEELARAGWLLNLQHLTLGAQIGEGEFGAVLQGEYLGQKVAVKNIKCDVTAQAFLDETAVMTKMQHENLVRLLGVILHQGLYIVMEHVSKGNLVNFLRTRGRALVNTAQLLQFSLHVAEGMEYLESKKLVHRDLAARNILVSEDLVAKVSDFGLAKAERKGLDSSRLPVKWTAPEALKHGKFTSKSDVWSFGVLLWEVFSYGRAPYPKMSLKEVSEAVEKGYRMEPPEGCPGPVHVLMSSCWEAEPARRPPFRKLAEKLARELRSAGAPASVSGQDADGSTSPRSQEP
Chain of UniProt P08172 (whole entry, looked up): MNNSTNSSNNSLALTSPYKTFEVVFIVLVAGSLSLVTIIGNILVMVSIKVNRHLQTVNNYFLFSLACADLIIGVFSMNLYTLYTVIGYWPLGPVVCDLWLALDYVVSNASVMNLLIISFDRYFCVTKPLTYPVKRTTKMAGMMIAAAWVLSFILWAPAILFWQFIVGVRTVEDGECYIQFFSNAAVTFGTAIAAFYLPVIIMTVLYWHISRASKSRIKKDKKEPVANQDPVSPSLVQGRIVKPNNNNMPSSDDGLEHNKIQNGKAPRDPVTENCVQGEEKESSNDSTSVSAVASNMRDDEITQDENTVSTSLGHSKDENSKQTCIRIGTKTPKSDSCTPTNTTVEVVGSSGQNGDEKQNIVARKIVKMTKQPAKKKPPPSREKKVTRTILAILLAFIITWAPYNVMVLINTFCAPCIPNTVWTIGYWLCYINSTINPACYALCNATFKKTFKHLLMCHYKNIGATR
Chain of UniProt P43358 (whole entry, looked up): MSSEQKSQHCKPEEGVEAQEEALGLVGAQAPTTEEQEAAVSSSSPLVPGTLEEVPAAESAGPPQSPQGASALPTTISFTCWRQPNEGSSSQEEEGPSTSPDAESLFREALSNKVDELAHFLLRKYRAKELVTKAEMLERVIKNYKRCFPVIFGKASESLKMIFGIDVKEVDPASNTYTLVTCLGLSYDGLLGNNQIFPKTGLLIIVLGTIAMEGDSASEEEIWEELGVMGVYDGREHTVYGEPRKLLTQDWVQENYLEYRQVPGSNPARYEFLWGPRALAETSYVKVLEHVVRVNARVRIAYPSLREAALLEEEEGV
Chain of UniProt Q13547 (whole entry, looked up): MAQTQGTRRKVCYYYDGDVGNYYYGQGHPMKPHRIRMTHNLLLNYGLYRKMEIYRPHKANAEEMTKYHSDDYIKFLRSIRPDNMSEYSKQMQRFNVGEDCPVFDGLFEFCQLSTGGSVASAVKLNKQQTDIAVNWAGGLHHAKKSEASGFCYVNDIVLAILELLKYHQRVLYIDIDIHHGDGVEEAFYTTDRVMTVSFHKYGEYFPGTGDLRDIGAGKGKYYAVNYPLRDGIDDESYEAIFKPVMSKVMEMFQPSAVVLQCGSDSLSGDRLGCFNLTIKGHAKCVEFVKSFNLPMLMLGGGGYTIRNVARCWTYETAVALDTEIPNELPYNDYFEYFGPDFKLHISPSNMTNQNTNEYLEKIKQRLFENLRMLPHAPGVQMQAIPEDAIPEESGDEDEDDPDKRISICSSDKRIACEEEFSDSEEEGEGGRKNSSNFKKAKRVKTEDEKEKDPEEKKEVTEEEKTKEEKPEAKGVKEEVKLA
Chain of UniProt Q7RTX0 (whole entry, unmodified, looked up): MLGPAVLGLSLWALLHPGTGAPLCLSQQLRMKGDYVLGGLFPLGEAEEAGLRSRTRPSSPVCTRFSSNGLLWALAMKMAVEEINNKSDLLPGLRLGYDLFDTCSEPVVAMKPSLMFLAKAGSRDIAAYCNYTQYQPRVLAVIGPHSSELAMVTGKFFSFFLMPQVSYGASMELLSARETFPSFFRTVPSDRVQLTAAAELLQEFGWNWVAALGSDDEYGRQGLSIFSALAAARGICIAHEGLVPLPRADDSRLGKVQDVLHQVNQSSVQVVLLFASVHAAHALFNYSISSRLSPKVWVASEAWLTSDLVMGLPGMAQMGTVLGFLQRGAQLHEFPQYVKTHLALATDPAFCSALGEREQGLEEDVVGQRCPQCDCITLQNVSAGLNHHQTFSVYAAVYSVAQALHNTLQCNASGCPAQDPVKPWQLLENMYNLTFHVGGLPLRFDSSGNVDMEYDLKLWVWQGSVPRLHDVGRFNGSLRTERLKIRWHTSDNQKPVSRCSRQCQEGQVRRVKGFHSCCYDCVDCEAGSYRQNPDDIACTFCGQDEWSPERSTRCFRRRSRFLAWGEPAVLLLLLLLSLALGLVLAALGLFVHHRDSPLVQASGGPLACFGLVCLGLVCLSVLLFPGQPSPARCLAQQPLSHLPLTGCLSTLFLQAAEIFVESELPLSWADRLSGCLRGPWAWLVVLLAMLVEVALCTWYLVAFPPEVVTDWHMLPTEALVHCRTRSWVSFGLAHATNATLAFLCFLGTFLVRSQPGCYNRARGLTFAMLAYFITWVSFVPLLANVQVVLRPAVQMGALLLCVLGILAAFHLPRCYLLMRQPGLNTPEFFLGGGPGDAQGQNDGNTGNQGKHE
Chain of UniProt P00760 (whole entry, looked up): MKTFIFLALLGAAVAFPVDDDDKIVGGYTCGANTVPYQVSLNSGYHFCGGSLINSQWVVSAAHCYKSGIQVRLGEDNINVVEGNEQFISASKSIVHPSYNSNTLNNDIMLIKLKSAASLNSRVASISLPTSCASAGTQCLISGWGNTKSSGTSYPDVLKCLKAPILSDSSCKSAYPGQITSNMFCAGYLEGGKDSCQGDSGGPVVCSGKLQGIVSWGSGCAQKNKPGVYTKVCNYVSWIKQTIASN

With `Cc1c(Cc2cc(OC(C)C(=O)O)ccc2Cl)c2ccc(C(=O)NC(C)c3ccc(C(C)(C)C)cc3)cc2n1C` (stereo not shown) the IC50 was 536 µM (PPARG ligand-binding domain; reporter gene, luciferase reporter; HEK293T, Gal4-PPARγ LBD).
The IC50 of `O=C(Nc1ccccc1C(=O)N1CCOCC1)C(C(F)(F)F)C(F)(F)F` is reported as 25 µM (Rhomboid protease AarA; enzyme activity, inhibitor, fluorescence).
`Cc1nc2ccccc2c(=O)n1N` gave an IC50 of 99.9 µM (Serine protease 1 (PRSS1, Bos taurus, UniProt P00760); enzyme activity, inhibitor).
For `Cc1nn(-c2cccc(N)c2)c(=O)c2cnc(Nc3ccc(N4CCNCC4)cc3)nc12`, the IC50 was greater than 10 µM (MATK (Homo sapiens, UniProt P42679); kinase activity, inhibitor, SelectScreen kinase profiling).
With `Cc1c(Cc2ccc(Cl)c(OC(C)C(=O)O)c2)c2ccc(C(=O)NC(C)c3cc(F)cc(C(C)(C)C)c3)cc2n1C` (stereo not shown) the IC50 was 0.28 µM (PPARG ligand-binding domain; reporter gene, luciferase reporter; HEK293T, Gal4-PPARγ LBD).
For `COC(=O)CCCCCCCC(=O)Nc1ccc(Nc2ncc(F)c(-c3cc(F)c4nc(C)n(C(C)C)c4c3)n2)cc1`, the IC50 was greater than 1 µM (HDAC1 (Homo sapiens, UniProt Q13547); enzyme activity, inhibitor).
`CC(C)(Oc1ccc(Cl)cc1)C(=O)O` has an IC50 of 410 µM (Taste receptor type 1 member 3, with T1R1 (TAS1R3, Homo sapiens, UniProt Q7RTX0, H641A)).
`Cc1c(Cc2ccc(OC(C)C(=O)O)cc2)c2ccc(C(=O)N[C@@H](C)c3cccc(C(C)(C)C)c3)cc2n1C` (stereo partly shown) gave an IC50 of 0.029 µM (PPARG; ligand displacement, TR-FRET).
`O=C(Nc1ccccc1)c1ccccc1NC(=O)C(C(F)(F)F)C(F)(F)F` has an IC50 of 1.5 µM (Rhomboid protease AarA; enzyme activity, inhibitor, fluorescence).
The IC50 of `Cc1c(Cc2cccc(OC(C)(C)C(=O)O)c2)c2ccc(C(=O)N[C@@H](C)c3cc(C(C)(C)C)ccc3F)cc2n1CC(C)C` is reported as 0.00194 µM (PPARG; ligand displacement, TR-FRET).
For `O=C(CCNC(=O)CNC(=O)CC(c1ccccc1)(c1ccccc1)c1ccccc1)NC[C@@H]1CCCN(Cc2ccc3cc(F)ccc3c2)C1`, the IC50 was 10 µM (CHRM2 (Homo sapiens, UniProt P08172); ligand displacement, radioligand; cell membranes).
The IC50 of `COCCn1cc2c(n1)CN(C(=O)Nc1nc(-c3ccc(F)cc3F)ccc1N)C2` is reported as greater than 150 µM (Lysine-specific histone demethylase 1A, with CoREST (KDM1A, Homo sapiens, UniProt O60341); demethylase activity, inhibitor; LSD1-CoREST complex).
The IC50 of `Clc1ccc(CC2CON=C(c3cc(Cl)nnc3Oc3cccc(C4CC4)c3)N2)c(Cl)c1` (stereo not shown) is reported as 0.023 ± 0.005 µM (serine palmitoyltransferase (Zymoseptoria tritici, UniProt F9X349+F9XMN6)).
`CC[C@H](C)[C@@H]1NC(=O)[C@H](Cc2ccc(O)cc2)NC(=O)CSC[C@@H](C(N)=O)NC(=O)[C@H](CC(N)=O)NC(=O)[C@H](Cc2c[nH]cn2)NC(=O)[C@H](Cc2ccc(O)cc2)NC(=O)[C@H](CC(=O)O)NC(=O)[C@H](Cc2ccc(Br)cc2)NC(=O)[C@H](CC(C)C)NC(=O)[C@H](CCCNC(=N)N)NC1=O` gave an IC50 of 0.0463 ± 0.016 µM (Melanoma-associated antigen 4, MAGE homology domain (Homo sapiens, UniProt P43358); binding, inhibitor, TR-FRET displacement; with: Alexa647-MTP-1).
`Cc1cccc([C@H](C)NC(=O)c2ccc3c(Cc4cccc(OC(C)(C)C(=O)O)c4)c(C)n(C)c3c2)c1` has an IC50 of 8.3 µM (PPARG ligand-binding domain; reporter gene, luciferase reporter; HEK293T, Gal4-PPARγ LBD).
With `O=C(NCC1CCOCC1)c1ccccc1NC(=O)C(C(F)(F)F)C(F)(F)F` the IC50 was 13 µM (Rhomboid protease AarA; enzyme activity, inhibitor, fluorescence).
